Results from different studies.
Compare with care: the assays were run in different laboratories. ± marks the error that the study gave. ≈ marks a conversion by molar mass, not a printed value.

CN1CCC[C@@H]1C(=O)N[C@@H](Cc1ccccc1)B(O)O
solubility (nephelometry; phosphate buffer; pH 6.8): > 200 µM

Cc1c(=O)n(C)c(Nc2ccc(I)cc2F)c2c(=O)n(C3CC3)c(=O)n(-c3cccc(NC(=O)CCOCCOCCNC(=O)CCC4=[N+]5C(=Cc6ccc(-c7ccc[nH]7)n6[B-]5(F)F)C=C4)c3)c12
solubility limit: ~2 µM (≈ 2.09 µg/mL)

COc1ccc(CC(=O)OCc2ccc(-n3cccn3)cc2)cc1F
solubility (FaSSIF): 89.3 µM

COc1cccc(-c2cc(-n3nncc3-c3ccc(C(F)(F)F)cc3)ccc2OC)c1
solubility (water): 13.6 ± 0.2 µM

O=C(NO)[C@H]1COC(c2ccc(OCc3cccc(F)c3)c(OC(F)(F)F)c2)=N1
solubility (aqueous buffer; pH 7.4): 262 mg/mL

CN1CCC[C@@H]1C(=O)N[C@@H](Cc1ccc(-c2ccccn2)cc1)B(O)O
solubility (nephelometry; phosphate buffer; pH 6.8): 100 µM

CC1(CNC(=O)[C@H](CN)NC(=O)c2ccc(C#CC#Cc3ccccc3)cc2)NC(=O)NC1=O (stereo partly shown)
solubility (aqueous buffer; pH 7.4): < 2.45 mg/mL

CCOc1ccccc1Nc1nnc(SCC(=O)Nc2cc(F)ccc2F)s1
solubility (FaSSIF): 138 µM

CCCCCCCCCC(=O)Nc1ccc(C(O)P(=O)(O)O)cc1 (stereo not shown)
solubility (water): 4 mg/mL

O=C(NO)[C@H]1COC(c2ccc(F)c(C(F)(F)F)c2)=N1
solubility (aqueous buffer; pH 7.4): 90.3 mg/mL

A few entries again:
CN1CCC[C@@H]1C(=O)N[C@@H](Cc1ccccc1)B(O)O
solubility (nephelometry; phosphate buffer; pH 6.8): > 200 µM
